Results collected from several papers.
Every numbered part comes from another study and shows a few of its results, in no order.

Block 1
Target: RNA binding protein fox-1 homolog 2, RRM domain, GST-SBP tag (RBFOX2, Homo sapiens, UniProt O43251-10, residues 100-194)
Method: RNA Bind-n-Seq
Form: RNA
Medium: in vitro
Concentration: 365 nM
Setting: natural RNA segment, single round, ends assumed
Reference: no-protein control
Reading: higher = stronger binding
`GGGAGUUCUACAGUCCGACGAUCGUUUGAUAUUUACCGUGAUAAUUACCUUACCUACCUACCUACUUUCAAUACACUUUAGGUAGCCGAUUAUCUGAUUUAAGUGCAGACACACUUUUCUCACAUUGAGUUGUUGGAAUUCUCGGGUGCCAA` — result for “RBNS enrichment (R)”: 0.428.
For `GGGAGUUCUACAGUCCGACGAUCCACACACACACACACCCCUGCUCAACAGAGGUUUAGUUUACAGUCUCUGAACUAAAGUAGUAACCUCCCAAAUUGUUUUUUCUAAUAAGCUGAGAUUCCCAUUUCUCUUAUGGAAUUCUCGGGUGCCAA`, “RBNS enrichment (R)” read 0.602.
Under “RBNS enrichment (R)”, `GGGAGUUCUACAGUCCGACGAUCUGCAGAAGAGAACUGAUUGGUGGUCGAAGCACCAUCUUCACAGAUGUUCAGGGGCAGUGGGGGGCUCCAGGCACGGUCAAUGAAGGAAACAGUGCCUGUCCACCCACCCUUGGAAUUCUCGGGUGCCAA` is recorded as 0.429.
`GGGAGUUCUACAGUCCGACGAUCCUUCUGAGUUCCUGCUGAUGUUACAAGGGACCACACUUUUGAGAAUCUGUGCUUUAAGCUAAGGAAAUAUUGCCUGGUGGGUUGGCUGCCUGGUAUUGGGCAUGGAAAUUUGGAAUUCUCGGGUGCCAA` — result for “RBNS enrichment (R)”: 1.52.
For `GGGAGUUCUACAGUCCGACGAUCUUGCAGAUUUCAGUCGUCGUGUUACUUGUGCACAAACAGAAGCUGGGUCUUACCCGCAGCACGAGUGUCUCGGGCUGCCCGGAGUCGCCCGGGAGCAGGUGCUGCAGCCAUGGAAUUCUCGGGUGCCAA`, “RBNS enrichment (R)” read 0.599.
For `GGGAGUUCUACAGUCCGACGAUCAGUUCUAGACCCCUCCAAUUUCUCAUCUGGUUGCAAGGCUUAUUUUUCUUUUGUACUUUCCUAUAGAUGCUAUAGCAUUUGAGUGUGGCAAUAUUUUUGUUGUGUAUAGAUGGAAUUCUCGGGUGCCAA`, “RBNS enrichment (R)” read 0.859.
`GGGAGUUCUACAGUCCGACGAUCCCGGCUGUGGGUCCACCCCAGCCGAGGGACUCCUGGCCUGCAUUGCGGGAUUGUCAGUGGCAUUUAGUUGAGAGUUGAGGGGCUUUGGCCUGAAAUAAACUGCAAGUAUUUGGAAUUCUCGGGUGCCAA` — result for “RBNS enrichment (R)”: 2.96.
`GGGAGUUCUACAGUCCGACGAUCGCUGCAUUAGAUAGGAUCCUCACAUCCCAUUCAGAACCAAAACUGAUACAGUGAAACAAUUAAGGUGAGCAAAUAGUUUUAACUUUUCUUUUUUUUUUUUAAGUUUCAUUUGGAAUUCUCGGGUGCCAA` — result for “RBNS enrichment (R)”: 0.79.
Under “RBNS enrichment (R)”, `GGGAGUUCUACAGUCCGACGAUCAAGAUAGGAUCGGAGAUACCUGUAGUCUUCAGACCUUUAGUGCCUGUAUUUAUCCAUCAUUACUGAAGUAUUUGUUAACUAAGCUAGCAACAAAAUAAUUUCUGUACUUUUGGAAUUCUCGGGUGCCAA` is recorded as 0.468.
For `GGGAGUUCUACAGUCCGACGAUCUUCUUAAAGUGACAGUAUCCCUUAACCUGCCACCAGUGUCCACCCUCCGGCCCCCGUCUUGUAAAAAGGGGAGGAGAAUUAGCCAAACACUGUAAGCUUUUAAGAAAAACUGGAAUUCUCGGGUGCCAA`, “RBNS enrichment (R)” read 1.66.
Under “RBNS enrichment (R)”, `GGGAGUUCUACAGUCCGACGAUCUUAUUUUUUACAACCGGACCUCCACCCCCAACUUCCUCCAGCCCAGCUGGGCUUCCUUUGUUGGAGUCAACUGUUGAUGCUUCCAGGCCAAACUGGCUUCCUCUCCUCCUUGGAAUUCUCGGGUGCCAA` is recorded as 0.406.
`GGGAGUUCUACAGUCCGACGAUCAUUUCUUUGUCCUAGACUUUACAAAUUUUUCAAAACUGUAACUUUAUUUUAAACUUGUGUAUCACAACUUGGUUGAUAUGCCUAAAAUGAUCUACUGGCUUUUGCUUAUGUGGAAUUCUCGGGUGCCAA` — result for “RBNS enrichment (R)”: 0.46.

Block 2
Target: RING finger protein unkempt homolog, zinc fingers 1-6, GST-SBP tag (UNK, Homo sapiens, UniProt Q9C0B0, residues 30-357)
Sequence of UniProt Q9C0B0 (30-357, looked up): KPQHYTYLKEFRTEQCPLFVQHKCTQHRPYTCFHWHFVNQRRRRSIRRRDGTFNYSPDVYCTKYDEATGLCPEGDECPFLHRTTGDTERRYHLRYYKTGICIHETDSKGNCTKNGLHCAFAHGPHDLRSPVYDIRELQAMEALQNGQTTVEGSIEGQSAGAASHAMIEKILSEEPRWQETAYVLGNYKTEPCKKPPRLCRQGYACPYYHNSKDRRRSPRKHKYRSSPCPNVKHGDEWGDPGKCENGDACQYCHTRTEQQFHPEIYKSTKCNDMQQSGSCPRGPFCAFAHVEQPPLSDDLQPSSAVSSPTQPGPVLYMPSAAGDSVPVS
Method: RNA Bind-n-Seq
Form: RNA
Medium: in vitro
Concentration: not given
Setting: RNA with constant flanks, human-mouse chimeric sites, ends assumed
Reference: input RNA pool
Reading: higher = stronger binding
For `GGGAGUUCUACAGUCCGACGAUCAGAUUCCCUCUCUUAAAACCUCCUCCGAAGUUGGAGUCUCUUACAGAUGCCUCAUCCCCUGUUAGCGUUUUGGUCUGGACCACCCAGCCUUGGACAAUUCCCGCCAACCAGGCAAUUUGCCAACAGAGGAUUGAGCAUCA`, the bound/input enrichment was 0.438 ratio.
`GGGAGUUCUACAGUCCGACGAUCAUGGAGAAGGAUUCUCUGCCCCGCUUUGUGCGCUCUGAAUUUUAUAAGGAGCUAAUCAAGUAGUCAUCUGGUCAGGCUUCCAAAAGUUCCUGUGAGUGUUGAGUUACAUCCUUUGUAGCACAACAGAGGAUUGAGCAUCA` has a bound/input enrichment of 0.325 ratio.
With `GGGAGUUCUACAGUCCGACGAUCGAGCCAAGCCGGCAGUUUGUAAAGGACUCAAUUCGGCUGGUUAAAAGAUGCACCAAACCCGACAGAAAAGAAUUCCAGAAGAUUGCCAUGGCUACAGCUAUAGGAUUUGCUAUCAUGGGACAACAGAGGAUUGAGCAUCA` the bound/input enrichment was 0.266 ratio.
`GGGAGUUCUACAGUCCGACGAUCGACUUUGGAACUGGUCCUCGCAACGCAGCCUUCUAUAGCCCUCAUGGACAUAUAUUAGUGCUGGCUGGAUUUGGAAAUCUGAGGGGACAAAUGGAAGUAUGGGAUGUUAAAAACUACAAGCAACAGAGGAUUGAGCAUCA` gave a bound/input enrichment of 0.364 ratio.
`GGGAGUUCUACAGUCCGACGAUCUUUGUUUGUAACUUAUCUGUAAAAGGUGUUUCUCCCUUACUGUCAAAAAAUAUGCAUGUAUAGUAAUUAGGACUUCAUUCCUCCAUGUUUUCUUCCCUUAUCUUACUGUCAUUGUCCUUACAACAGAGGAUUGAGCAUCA` gave a bound/input enrichment of 0.848 ratio.
`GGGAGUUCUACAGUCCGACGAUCGUAUACGGUUAUCGAGGAAAGGACUGUAGAGCGAAUGUAUACCUGCUUCCCACAGGGGAGAUAGUUUAUUUUAUCGCCUCAGUGGUAGUACUAUUUAAUUAUGAGGAGAGAACUCAGCGACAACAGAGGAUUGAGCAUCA` has a bound/input enrichment of 3.4 ratio.
For `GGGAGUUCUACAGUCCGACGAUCGAGUCGAGCAAACUUGAAACAAUUCGUUAUCUUGCAGCCUCAGUGUUCACUUGCUUGGCGAUAGCAUUGGGGUUUUAUAGGUUCUGGGGAAGUAGUAUUAAUGCUCACUGCCGCUGCUGCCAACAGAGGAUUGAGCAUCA`, the bound/input enrichment was 2.27 ratio.

Block 3
Target: Ras GTPase-activating protein-binding protein 1, RRM domain (G3BP1, Homo sapiens, UniProt Q13283)
Sequence of UniProt Q13283 (whole entry, looked up): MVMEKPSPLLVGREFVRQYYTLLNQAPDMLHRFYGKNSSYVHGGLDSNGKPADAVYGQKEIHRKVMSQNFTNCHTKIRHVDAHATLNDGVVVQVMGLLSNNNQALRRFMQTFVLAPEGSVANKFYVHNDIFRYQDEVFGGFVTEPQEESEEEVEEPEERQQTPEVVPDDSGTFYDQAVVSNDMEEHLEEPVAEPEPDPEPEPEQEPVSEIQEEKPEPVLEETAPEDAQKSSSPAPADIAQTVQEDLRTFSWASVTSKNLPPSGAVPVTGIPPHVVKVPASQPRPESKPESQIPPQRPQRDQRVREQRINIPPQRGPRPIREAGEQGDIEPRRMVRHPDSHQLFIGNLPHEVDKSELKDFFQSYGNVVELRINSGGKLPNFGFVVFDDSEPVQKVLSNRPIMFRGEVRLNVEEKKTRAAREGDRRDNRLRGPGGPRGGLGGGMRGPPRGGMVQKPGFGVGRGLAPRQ
Method: RNA Bind-n-Seq
Form: RNA
Medium: in vitro
Concentration: 1 µM
Setting: whole 134-nt RNA, ends assumed
Together with: 150 mM KCl
Reference: input library
Reading: higher = stronger binding
For `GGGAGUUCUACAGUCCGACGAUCCACAGACAACACGCACCCACACAGACACAGAGGGAAGGGGUUGGGAUGGGGACAGGGAGCACAGCAGGGCGGGGUAGGACCCCAGCCCCUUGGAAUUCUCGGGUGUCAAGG`, the log2 enrichment was -0.0678.
The log2 enrichment of `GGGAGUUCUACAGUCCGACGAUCUUGACUAUAUUGUGGAGUAUGACUAUGAUGCUGUACAUGAUGAUGAAUUAACUAUUCGAGUUGGAGAAAUCAUCAGGAAUGUGAAAAAGCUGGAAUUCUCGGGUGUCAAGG` is reported as -0.253.
For `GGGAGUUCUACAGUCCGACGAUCGUCCUGUGCUACACAUCGUAUGUACCGAAUCGGGAAAAAGGGUUUUUUUGGGUUUGGGAAAGUAUUAUGUUACGCCGUUCGGAUCUGCACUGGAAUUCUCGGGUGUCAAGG`, the log2 enrichment was -0.0491.
For `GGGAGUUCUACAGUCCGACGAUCCAAGUCCUGUGCUACACAUCGUAUGUACCGAAUCGGGAAAGGGGAAAGGGAAAGGAAAGUAUUAUGUUACGCCGUUCGGAUCUGCACUUCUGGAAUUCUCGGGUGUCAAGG`, the log2 enrichment was -0.205.
With `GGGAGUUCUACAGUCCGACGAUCGUCCUGUGCUACACAUCGUAUGUACCGAAUCGGGGUUUGGGGAGGGGUUUUUUUGGGGAAAGUAUUAUGUUACGCCGUUCGGAUCUGCACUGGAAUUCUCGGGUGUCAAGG` the log2 enrichment was 0.839.
`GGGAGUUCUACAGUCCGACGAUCGUCCUGUGCUACACAUCGUAUGUACCGAAUCGGGAAAAAAAGGGUUUUUUUGGGAGGGAAAGUAUUAUGUUACGCCGUUCGGAUCUGCACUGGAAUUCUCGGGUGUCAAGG` gave a log2 enrichment of 0.292.
The log2 enrichment of `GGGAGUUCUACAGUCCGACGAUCUGGCCCUGGUGGCAUGCGGGGAGGAAGAGGUGGCCUCAUGGAUCGUGGUGGUCCCGGUGGAAUGUUCAGAGGUGGCCGUGGUGGAGGCAGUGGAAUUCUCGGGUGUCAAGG` is reported as 1.22.
With `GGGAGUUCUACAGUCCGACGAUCUCAAGUCCUGUGCUACACAUCGUAUGUACCGAAUCGGUUUGGAAAAAAAGGUGGAAAGUAUUAUGUUACGCCGUUCGGAUCUGCACUUCCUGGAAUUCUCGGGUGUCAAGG` the log2 enrichment was -0.184.
The log2 enrichment of `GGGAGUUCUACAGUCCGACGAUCCACAGACAACACGCACCCACACAGACACAGAGGGAAGGGGUUGGGAUGGGGACAGGGUGCACAGCAAAGCGGGGUAGGACCCCAGCCCCUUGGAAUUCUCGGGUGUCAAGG` is reported as -0.0899.
`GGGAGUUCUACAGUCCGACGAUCUGUGCUACACAUCGUAUGUACCGAAUCGGGCCCCCCCGGGCCCCCCCGGGGCCCCCCCGGGGAAAGUAUUAUGUUACGCCGUUCGGAUCUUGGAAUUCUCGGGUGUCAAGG` has a log2 enrichment of -0.734.

Block 4
Target: Centromere-binding protein 1, full length, His-tagged (CBF1, Saccharomyces cerevisiae, UniProt P17106, residues 1-351)
Sequence of UniProt P17106 (whole entry, looked up): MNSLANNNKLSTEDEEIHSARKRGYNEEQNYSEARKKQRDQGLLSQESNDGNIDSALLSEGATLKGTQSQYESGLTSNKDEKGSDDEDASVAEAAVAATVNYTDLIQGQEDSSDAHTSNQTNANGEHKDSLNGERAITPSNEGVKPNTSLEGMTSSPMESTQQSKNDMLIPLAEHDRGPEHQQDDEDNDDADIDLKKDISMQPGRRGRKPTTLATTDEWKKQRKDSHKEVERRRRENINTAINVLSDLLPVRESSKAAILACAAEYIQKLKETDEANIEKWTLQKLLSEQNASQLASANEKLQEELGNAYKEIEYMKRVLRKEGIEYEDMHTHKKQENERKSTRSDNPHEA
Method: competition protein-binding microarray
Form: double-stranded DNA, one strand shown
Medium: in vitro
Concentration: 2 µM
Setting: whole 60-bp probe, lowest competitor level
Together with: Pho4 competitor, 0.05 µM
Reading: higher = stronger binding
`CGTCCTAGTGATTGTCCAGTGGGTGCCATGAGGAAGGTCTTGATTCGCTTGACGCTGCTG` gave a fluorescence intensity of 79.9 a.u.
The fluorescence intensity of `CTAACGAAGGTTTGTCACTGGACTTACAAGCCAAGTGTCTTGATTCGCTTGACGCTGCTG` is reported as 75.8 a.u.
With `CACTTCCTAACCCATCACGGGATACCGAATTGGGTAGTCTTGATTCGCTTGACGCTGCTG` the fluorescence intensity was 714 a.u.
With `CTTTCCCGATCTTTTCACGTGCTGTTAGCACATTTGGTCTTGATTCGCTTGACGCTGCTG` the fluorescence intensity was 1000 a.u.
For `AAATGCAGCCAAAGATGCGTGCCGATGCAGTTAGCTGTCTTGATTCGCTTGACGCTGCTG`, the fluorescence intensity was 67.3 a.u.
For `CTAACGAAGGTTTGATTCGTGGGTGACAAGCCAAGTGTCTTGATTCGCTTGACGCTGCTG`, the fluorescence intensity was 68 a.u.
The fluorescence intensity of `CTTTCCCGATCTTGCATTGTGGGTGTAGCACATTTGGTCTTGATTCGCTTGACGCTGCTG` is reported as 71.1 a.u.
For `TGCGCAACAACTTGTACGGTGGGTGTATGTCTAGAAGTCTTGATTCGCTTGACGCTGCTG`, the fluorescence intensity was 62.7 a.u.
With `GGACGCGTAGAGGCGCACGTGTCCCGGCCCGGAGCCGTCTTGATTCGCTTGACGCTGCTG` the fluorescence intensity was 1020 a.u.
`CATACCCAACCTTGAAACGTGGGTGAAGATATTTGTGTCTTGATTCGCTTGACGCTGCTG` has a fluorescence intensity of 94.7 a.u.
For `CGTCCTAGTGATTTTCACGTGGACTCCATGAGGAAGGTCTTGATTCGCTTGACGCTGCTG`, the fluorescence intensity was 679 a.u.
The fluorescence intensity of `CGGGGTTAAGTTTGACGAGTGGGTGGCTTGCAGCAGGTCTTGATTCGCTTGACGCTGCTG` is reported as 64.1 a.u.
The fluorescence intensity of `CGGGGTTAAGTTTGTGAGGTGGGTGGCTTGCAGCAGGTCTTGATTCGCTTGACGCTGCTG` is reported as 65.2 a.u.
`AAAGCGGTAATTTGTCACACTACTTCACATATCTATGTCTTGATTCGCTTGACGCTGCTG` has a fluorescence intensity of 109 a.u.

For quick reference, copied from above (block 4):
For `CGTCCTAGTGATTTTCACGTGGACTCCATGAGGAAGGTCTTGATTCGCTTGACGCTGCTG`, the fluorescence intensity was 679 a.u.
The fluorescence intensity of `CGGGGTTAAGTTTGACGAGTGGGTGGCTTGCAGCAGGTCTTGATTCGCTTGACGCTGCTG` is reported as 64.1 a.u.
The fluorescence intensity of `CGGGGTTAAGTTTGTGAGGTGGGTGGCTTGCAGCAGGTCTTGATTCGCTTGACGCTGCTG` is reported as 65.2 a.u.
`AAAGCGGTAATTTGTCACACTACTTCACATATCTATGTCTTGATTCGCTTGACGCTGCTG` has a fluorescence intensity of 109 a.u.
